# Experimental data collected from several papers.
# Protocols differ between the studies behind these lines. Numbers after ± are the reported error.
# LGALS4 C-terminal domain: Galectin-4, C-terminal domain (LGALS4, Homo sapiens, UniProt P56470)
# UniProt P56470, sequence (whole entry, looked up): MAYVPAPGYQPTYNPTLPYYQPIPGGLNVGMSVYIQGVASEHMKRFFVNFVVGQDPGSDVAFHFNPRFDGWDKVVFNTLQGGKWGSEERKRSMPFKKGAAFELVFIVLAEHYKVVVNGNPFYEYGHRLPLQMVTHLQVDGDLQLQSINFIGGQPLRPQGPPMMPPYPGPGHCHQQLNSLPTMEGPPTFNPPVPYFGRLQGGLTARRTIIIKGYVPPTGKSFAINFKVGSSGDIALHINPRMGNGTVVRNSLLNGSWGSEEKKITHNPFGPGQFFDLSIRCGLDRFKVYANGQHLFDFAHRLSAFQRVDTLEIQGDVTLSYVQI
# PPIA: Peptidyl-prolyl cis-trans isomerase A (PPIA, Homo sapiens, UniProt P62937)
# UniProt P62937, sequence (whole entry, looked up): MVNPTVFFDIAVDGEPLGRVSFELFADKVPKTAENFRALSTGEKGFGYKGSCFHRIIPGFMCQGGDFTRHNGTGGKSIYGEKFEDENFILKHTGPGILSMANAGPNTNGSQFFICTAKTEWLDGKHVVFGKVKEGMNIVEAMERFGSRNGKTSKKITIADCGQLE
# BCL2L1: Bcl-2-like protein 1 (BCL2L1, Homo sapiens, UniProt Q07817)
# UniProt Q07817, sequence (whole entry, looked up): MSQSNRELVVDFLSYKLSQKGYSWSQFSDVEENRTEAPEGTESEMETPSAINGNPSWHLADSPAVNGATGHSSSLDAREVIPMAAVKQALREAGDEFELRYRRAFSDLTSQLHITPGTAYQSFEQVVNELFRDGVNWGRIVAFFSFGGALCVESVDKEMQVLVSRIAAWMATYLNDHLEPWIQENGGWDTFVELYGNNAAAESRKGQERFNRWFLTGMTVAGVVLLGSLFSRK
# LGALS3: Galectin-3 (LGALS3, Homo sapiens, UniProt P17931)
# UniProt P17931, sequence (whole entry, unmodified, looked up): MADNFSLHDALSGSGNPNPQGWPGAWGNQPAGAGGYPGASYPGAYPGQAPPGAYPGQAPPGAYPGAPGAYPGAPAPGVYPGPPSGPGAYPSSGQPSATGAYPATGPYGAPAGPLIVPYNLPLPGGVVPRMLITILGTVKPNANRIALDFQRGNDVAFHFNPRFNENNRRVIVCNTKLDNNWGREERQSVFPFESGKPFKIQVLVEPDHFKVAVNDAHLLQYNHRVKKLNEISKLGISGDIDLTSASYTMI
# UniProt P40337, sequence (whole entry, looked up): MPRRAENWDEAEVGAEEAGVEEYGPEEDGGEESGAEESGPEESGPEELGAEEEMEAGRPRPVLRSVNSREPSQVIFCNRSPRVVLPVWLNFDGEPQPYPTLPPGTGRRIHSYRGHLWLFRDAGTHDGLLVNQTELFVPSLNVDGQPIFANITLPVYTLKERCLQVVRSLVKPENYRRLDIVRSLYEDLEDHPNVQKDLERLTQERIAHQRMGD
# UniProt Q02078, sequence (1-95, looked up): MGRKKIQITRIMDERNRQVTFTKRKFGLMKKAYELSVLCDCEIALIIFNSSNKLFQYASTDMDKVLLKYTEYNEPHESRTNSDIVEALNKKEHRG
# UniProt Q9NNX6, sequence (whole entry, looked up): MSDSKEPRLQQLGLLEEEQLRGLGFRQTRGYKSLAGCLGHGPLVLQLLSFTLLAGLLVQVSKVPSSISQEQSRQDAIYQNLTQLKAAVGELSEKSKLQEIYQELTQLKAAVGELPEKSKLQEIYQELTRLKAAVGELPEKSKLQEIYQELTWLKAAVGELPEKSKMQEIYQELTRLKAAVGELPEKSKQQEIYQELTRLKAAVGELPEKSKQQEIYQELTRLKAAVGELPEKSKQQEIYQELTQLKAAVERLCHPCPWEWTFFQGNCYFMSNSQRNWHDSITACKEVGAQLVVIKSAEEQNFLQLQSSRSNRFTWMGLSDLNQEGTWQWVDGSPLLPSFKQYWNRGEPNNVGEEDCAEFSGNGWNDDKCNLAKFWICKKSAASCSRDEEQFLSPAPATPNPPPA
# UniProt P98170, sequence (whole entry, looked up): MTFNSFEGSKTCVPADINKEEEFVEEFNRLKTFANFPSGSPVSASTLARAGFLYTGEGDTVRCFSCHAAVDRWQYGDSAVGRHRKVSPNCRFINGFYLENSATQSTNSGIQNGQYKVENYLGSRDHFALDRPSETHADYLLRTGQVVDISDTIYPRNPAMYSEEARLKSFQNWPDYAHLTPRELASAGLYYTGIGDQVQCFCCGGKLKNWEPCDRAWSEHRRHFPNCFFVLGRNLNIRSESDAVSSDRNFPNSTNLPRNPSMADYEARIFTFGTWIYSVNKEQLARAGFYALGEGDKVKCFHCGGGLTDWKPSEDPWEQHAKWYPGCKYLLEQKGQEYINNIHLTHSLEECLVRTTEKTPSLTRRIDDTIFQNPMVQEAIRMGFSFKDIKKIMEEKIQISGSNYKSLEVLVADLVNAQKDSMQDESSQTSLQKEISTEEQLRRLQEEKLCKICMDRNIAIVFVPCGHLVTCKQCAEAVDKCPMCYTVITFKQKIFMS
# UniProt Q13131, sequence (whole entry, looked up): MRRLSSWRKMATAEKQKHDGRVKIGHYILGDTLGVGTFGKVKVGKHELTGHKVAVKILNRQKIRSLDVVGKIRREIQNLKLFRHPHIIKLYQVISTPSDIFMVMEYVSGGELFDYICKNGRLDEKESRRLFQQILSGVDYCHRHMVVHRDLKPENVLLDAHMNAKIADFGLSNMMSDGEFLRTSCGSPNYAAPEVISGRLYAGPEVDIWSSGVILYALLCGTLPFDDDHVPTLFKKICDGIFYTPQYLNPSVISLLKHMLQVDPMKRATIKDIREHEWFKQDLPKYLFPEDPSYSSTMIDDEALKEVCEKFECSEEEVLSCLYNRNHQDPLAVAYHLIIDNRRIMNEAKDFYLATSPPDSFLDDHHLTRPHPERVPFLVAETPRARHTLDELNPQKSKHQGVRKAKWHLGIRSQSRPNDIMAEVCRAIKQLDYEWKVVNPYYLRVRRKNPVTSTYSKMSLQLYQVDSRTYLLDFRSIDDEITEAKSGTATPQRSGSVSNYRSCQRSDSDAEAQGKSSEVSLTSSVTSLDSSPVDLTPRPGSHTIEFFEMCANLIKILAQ
# UniProt P21554, sequence (whole entry, looked up): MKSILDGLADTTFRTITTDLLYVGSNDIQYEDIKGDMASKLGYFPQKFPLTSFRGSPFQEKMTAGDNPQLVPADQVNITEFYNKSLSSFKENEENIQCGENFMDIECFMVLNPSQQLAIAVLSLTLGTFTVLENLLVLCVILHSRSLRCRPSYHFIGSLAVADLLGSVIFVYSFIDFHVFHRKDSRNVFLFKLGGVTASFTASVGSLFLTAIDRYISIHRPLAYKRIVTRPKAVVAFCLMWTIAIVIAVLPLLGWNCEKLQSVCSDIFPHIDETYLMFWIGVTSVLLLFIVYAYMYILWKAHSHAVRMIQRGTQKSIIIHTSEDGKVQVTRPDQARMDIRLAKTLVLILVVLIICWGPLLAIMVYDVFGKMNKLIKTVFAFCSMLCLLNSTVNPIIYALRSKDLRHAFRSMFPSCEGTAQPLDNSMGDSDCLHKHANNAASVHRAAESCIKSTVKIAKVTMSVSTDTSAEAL
# UniProt Q9BQB4, sequence (whole entry, looked up): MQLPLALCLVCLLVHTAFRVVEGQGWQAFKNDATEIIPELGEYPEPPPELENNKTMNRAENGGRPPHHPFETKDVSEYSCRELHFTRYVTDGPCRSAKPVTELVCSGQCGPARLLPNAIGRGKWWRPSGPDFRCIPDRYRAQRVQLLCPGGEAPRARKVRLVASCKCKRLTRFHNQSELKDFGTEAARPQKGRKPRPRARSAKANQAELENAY
# UniProt Q92843, sequence (whole entry, looked up): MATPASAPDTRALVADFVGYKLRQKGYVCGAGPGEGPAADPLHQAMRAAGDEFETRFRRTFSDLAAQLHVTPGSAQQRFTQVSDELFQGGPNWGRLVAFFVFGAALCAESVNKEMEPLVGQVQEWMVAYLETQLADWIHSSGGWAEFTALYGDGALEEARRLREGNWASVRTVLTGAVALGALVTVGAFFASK
# UniProt P27694, sequence (whole entry, looked up): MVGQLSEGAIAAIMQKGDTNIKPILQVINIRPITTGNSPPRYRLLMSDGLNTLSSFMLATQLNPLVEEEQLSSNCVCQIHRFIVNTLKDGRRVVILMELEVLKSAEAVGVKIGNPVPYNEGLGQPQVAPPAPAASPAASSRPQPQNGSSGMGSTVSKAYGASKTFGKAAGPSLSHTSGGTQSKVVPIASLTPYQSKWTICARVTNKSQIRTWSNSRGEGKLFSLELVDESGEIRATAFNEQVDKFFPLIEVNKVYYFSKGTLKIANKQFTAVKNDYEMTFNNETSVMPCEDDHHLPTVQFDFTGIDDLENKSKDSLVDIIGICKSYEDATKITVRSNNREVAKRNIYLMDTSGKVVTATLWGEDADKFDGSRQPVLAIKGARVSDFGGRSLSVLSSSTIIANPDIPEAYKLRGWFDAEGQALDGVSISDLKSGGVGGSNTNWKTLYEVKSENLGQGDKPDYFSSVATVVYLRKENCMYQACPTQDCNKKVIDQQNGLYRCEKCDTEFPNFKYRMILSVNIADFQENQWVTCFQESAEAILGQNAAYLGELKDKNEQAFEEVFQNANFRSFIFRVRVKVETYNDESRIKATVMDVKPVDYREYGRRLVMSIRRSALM
# UniProt O43741, sequence (whole entry, looked up): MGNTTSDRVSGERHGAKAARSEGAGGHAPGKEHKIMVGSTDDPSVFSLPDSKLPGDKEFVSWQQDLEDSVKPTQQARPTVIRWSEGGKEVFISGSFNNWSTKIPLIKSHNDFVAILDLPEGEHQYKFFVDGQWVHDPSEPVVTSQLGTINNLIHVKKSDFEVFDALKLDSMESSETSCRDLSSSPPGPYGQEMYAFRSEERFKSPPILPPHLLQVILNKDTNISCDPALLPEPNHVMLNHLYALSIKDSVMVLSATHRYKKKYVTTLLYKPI
SMILES,target,assay,setting,Kd
CN(C)c1ccc2c(-c3ccc(C(=O)NCCCC[C@@H](NC(=O)[C@@H](CCCNC(=N)N)NC(=O)[C@@H](CCCNC(=N)N)NC(=O)[C@@H](CCCNC(=N)N)NC(=O)[C@@H](CCCNC(=N)N)NC(=O)[C@@H](CCCNC(=N)N)NC(=O)[C@@H](CCCNC(=N)N)NC(=O)CCCCCNC(=O)[C@@H](CCCNC(=N)N)NC(=O)CCCCCNC(=O)c4ccc(-c5ccnc(N)n5)s4)C(N)=O)cc3C(=O)[O-])c3ccc(=[N+](C)C)cc-3oc2c1,"cGMP-dependent protein kinase 1, isoform alpha (PRKG1, Homo sapiens, UniProt Q13976)","binding, fluorescence intensity",together with: cGMP,0.00386 µM
CC(=O)N[C@@H]1[C@@H](O[C@@H]2O[C@H](C(=O)O)[C@@H](O[C@@H]3O[C@H](COS(=O)(=O)O)[C@@H](O)[C@H](O[C@@H]4O[C@H](C(=O)O)[C@@H](O)[C@H](O)[C@H]4O)[C@H]3NC(C)=O)[C@H](O)[C@H]2O)[C@H](O)[C@@H](COS(=O)(=O)O)O[C@H]1N=[N+]=[N-],"Sclerostin (SOST, Homo sapiens, UniProt Q9BQB4)","ligand displacement, FP",,98.7 µM
CC(=O)N[C@H]1[C@@H](O[C@H]2[C@@H](O)[C@@H](CO)O[C@@H](O[C@H]3[C@H](O)[C@@H](O)C(O)O[C@@H]3CO)[C@@H]2O[C@@H]2O[C@@H](C)[C@@H](O)[C@@H](O)[C@@H]2O)O[C@H](CO)[C@H](O)[C@@H]1O (stereo partly drawn),"CD209 antigen (CD209, Homo sapiens, UniProt Q9NNX6)","binding, NMR",,7600 µM
CC(C)C1=CC23CCC4C(C)(C(=O)O)CCCC4(C)C2CC1C1C(=O)OC(=O)C13 (stereo not drawn),"Replication protein A 70 kDa DNA-binding subunit, DBD-F (RPA1, Homo sapiens, UniProt P27694)",fluorescence anisotropy competition,25 °C,103 µM
O=C(N[C@@H](Cn1cncn1)c1ccc(Cl)cc1Cl)c1ccc(-c2nnc(-c3ccccc3)o2)cc1,"Sterol 14-alpha demethylase (CYP51, Trypanosoma cruzi, UniProt Q7Z1V1)","binding, absorbance",,0.15 µM
CC[C@H](C)[C@H](NC(=O)[C@H](CCCNC(=N)N)NC(=O)[C@H](CO)NC(=O)[C@H](CC(C)C)NC(=O)[C@H](CCC(=O)O)NC(=O)[C@H](CCC(N)=O)NC(=O)[C@H](C)NC(=O)[C@@H](NC(=O)[C@H](Cc1c[nH]c2ccccc12)NC(=O)[C@@H](NC(=O)[C@H](CCC(=O)O)NC(=O)[C@@H]1CCCN1C(=O)[C@H](CCCNC(=N)N)NC(=O)c1ccc2c(c1)C(=O)OC21c2ccc(O)cc2Oc2cc(O)ccc21)[C@@H](C)CC)[C@@H](C)CC)C(=O)NCC(=O)N[C@@H](CC(=O)O)C(=O)N[C@@H](CCC(=O)O)C(=O)N[C@@H](Cc1ccccc1)C(=O)N[C@@H](CC(N)=O)C(=O)N[C@@H](C)C(=O)N[C@@H](Cc1ccc(O)cc1)C(=O)N[C@@H](Cc1ccc(O)cc1)C(=O)N[C@@H](C)C(=O)N[C@@H](CCCNC(=N)N)C(N)=O,"Bcl-2-like protein 2 (BCL2L2, Homo sapiens, UniProt Q92843)",fluorescence anisotropy,,0.018 ± 0.0053 µM
CN(C)CCNC(=O)c1cccc2c(NCCCCc3c(N)nc(N)nc3N)c3ccccc3nc12,tRNA,"binding, ITC",25 °C,2400 ± 2100 µM
COc1c(F)c(F)c(C(=O)N[C@H]2[C@@H](O)[C@@H](CO)O[C@@H](S[C@@H]3O[C@H](CO)[C@H](O)[C@H](NC(=O)c4c(F)c(F)c(OC)c(F)c4F)[C@H]3O)[C@@H]2O)c(F)c1F,"Galectin-3 (LGALS3, Homo sapiens, UniProt P17931, R144K)","cell-free assay, FP",,1.3 µM
OC[C@H]1Oc2cc(I)cc3c2[C@@H](OC3)[C@H]1O,LGALS4 C-terminal domain,"binding, competitive fluorescence polarization",20 °C,1600 ± 220 µM
Cc1noc(NS(=O)(=O)c2ccc(NC(=O)c3cc(-c4cccc(Cl)c4)nc4ccccc34)cc2)c1C,PPIA,"binding, SPR",pH 7.4,52.3 µM
Nc1ccccc1NC(=O)CCCCCC(=O)Nc1cccc(C(F)(F)F)c1,"Myocyte-specific enhancer factor 2A, residues 1-95 (MEF2A, Homo sapiens, UniProt Q02078)","binding, 19F NMR titration","pH 7.66, 25 °C, HDAC-binding groove, no DNA",~0.5 µM
CCc1nc2cc3ccccc3cc2cc1C(=O)N1CCC[C@H]1C(=O)N[C@@H](C/C=C\C[C@H](NC(=O)[C@@H]1CCCN1C(=O)c1cc2cc3ccccc3cc2nc1CC)C(=O)N[C@@H](CCCCN)C(=O)NCCCN)C(=O)N[C@@H](CCCCN)C(=O)NCCCN,(CUG)10 RNA,SPR,pH 7.4,0.039 µM
C[n+]1cc2cc3cc(ccc31)NC(=O)CCCCC(=O)Nc1ccc3c(c1)cc(c[n+]3C)C(=O)Nc1ccc3[nH]cc(c3c1)CCNC2=O,c-MYC Pu22 G-quadruplex DNA,thiazole orange displacement,together with: 0.50 µM thiazole orange,0.19 ± 0.03 µM
CC[C@H](C)[C@H](NC(=O)[C@H](CCC(=O)O)NC(=O)[C@@H]1CCCN1C(=O)[C@H](CCCNC(=N)N)NC(C)=O)C(=O)N[C@@H](Cc1c[nH]c2ccccc12)C(=O)N[C@@H](C)C(=O)N[C@@H](C)C(=O)N[C@@H](CCC(N)=O)C(=O)N[C@@H](CCC(=O)O)C(=O)N[C@@H](CC(C)C)C(=O)N[C@@H](CCC(N)=O)C(=O)N[C@@H](CCCNC(=N)N)C(=O)N[C@@H](CC(N)=O)C(=O)NCC(=O)N[C@@H](CC(=O)O)C(=O)N[C@@H](CCC(=O)O)C(=O)N[C@@H](Cc1ccc(O)cc1)C(=O)N[C@@H](CC(N)=O)C(=O)N[C@@H](C)C(=O)N[C@@H](Cc1ccc(O)cc1)C(=O)N[C@@H](Cc1ccc(O)cc1)C(=O)N[C@@H](C)C(=O)N[C@@H](CCCNC(=N)N)C(=O)N[C@@H](CCCNC(=N)N)C(=O)N[C@H](C(=O)N[C@@H](Cc1ccccc1)C(=O)N[C@@H](CC(C)C)C(=O)N[C@@H](CC(N)=O)C(N)=O)C(C)C,BCL2L1,competitive fluorescence polarization,together with: fluorescein-labelled peptide 10 nM,0.031 µM
CC(=O)OC1CCC(OC(C)=O)O1 (racemic),PPIA,"binding, SPR",pH 4.5,> 10 µM
O=C(Nc1cccc(C(=O)Nc2ccc(S(=O)(=O)O)c3cc(S(=O)(=O)O)cc(S(=O)(=O)O)c23)c1)Nc1cccc(C(=O)Nc2ccc(S(=O)(=O)O)c3cc(S(=O)(=O)O)cc(S(=O)(=O)O)c23)c1,"E3 ubiquitin-protein ligase XIAP, BIR1 domain (XIAP, Homo sapiens, UniProt P98170)",microscale thermophoresis,24 °C,25 ± 5 µM
CCN(CC)C(=O)C1CCCN(C(=O)Nc2ccc3nc(-c4ccco4)c(-c4ccco4)nc3c2)C1 (stereo not drawn),PPIA,"binding, fluorescence",pH 8,3.78 µM
CCc1cc2c3c(c1CC)O[C@H](CO)[C@H](O)[C@@H]3OC2,LGALS4 C-terminal domain,"binding, competitive fluorescence polarization",20 °C,3700 ± 650 µM
CC[C@H](C)[C@H](NC(=O)[C@H](CCC(=O)O)NC(=O)[C@@H]1CCCN1C(=O)[C@H](CCCNC(=N)N)NC(C)=O)C(=O)N[C@@H](Cc1c[nH]c2ccccc12)C(=O)N[C@@H](CC(=O)O)C(=O)N[C@@H](C)C(=O)N[C@@H](CCC(N)=O)C(=O)N[C@@H](CCC(=O)O)C(=O)N[C@@H](CC(C)C)C(=O)N[C@@H](CCCCN)C(=O)N[C@@H](CCCNC(=N)N)C(=O)N[C@@H](Cc1ccccc1)C(=O)NCC(=O)N[C@@H](CC(=O)O)C(=O)N[C@@H](CCC(=O)O)C(=O)N[C@@H](Cc1ccccc1)C(=O)N[C@@H](CC(N)=O)C(=O)N[C@@H](C)C(=O)N[C@@H](Cc1ccc(O)cc1)C(=O)N[C@@H](Cc1ccc(O)cc1)C(=O)N[C@@H](C)C(=O)N[C@@H](CCCNC(=N)N)C(=O)N[C@@H](CCCNC(=N)N)C(=O)N[C@H](C(=O)N[C@@H](Cc1ccccc1)C(=O)N[C@@H](CC(C)C)C(=O)N[C@@H](CC(N)=O)C(N)=O)C(C)C,BCL2L1,competitive fluorescence polarization,together with: fluorescein-labelled peptide 10 nM,0.013 µM
Nc1ncnc2c1ncn2[C@@H]1O[C@H](CO)[C@@H](O[C@H]2O[C@H](CO)[C@@H](OP(=O)(O)O)[C@H](OP(=O)(O)O)[C@H]2O)[C@H]1O,"Inositol 1,4,5-trisphosphate-gated calcium channel ITPR1, IP3-binding core (Itpr1, Rattus norvegicus, UniProt P29994, R504Q)","binding, 3H-IP3 competition",IP3-binding core IBC^R504Q,0.308 µM
NC(=O)c1ccc[n+]([C@@H]2O[C@H](COP(=O)([O-])OP(=O)(O)OC[C@H]3O[C@@H](n4cnc5c(N)ncnc54)[C@H](O)[C@@H]3O)[C@@H](O)[C@H]2O)c1,"kptA (Runella slithyformis, UniProt A0A7U3ZK32)","binding, isothermal titration calorimetry",together with: saturating NADP+,47 ± 3 µM
COc1c(F)c(F)c(C(=O)N[C@H]2[C@@H](O)[C@@H](CO)O[C@@H](S[C@@H]3O[C@H](CO)[C@H](O)[C@H](NC(=O)c4c(F)c(F)c(OC)c(F)c4F)[C@H]3OS(=O)(=O)O)[C@@H]2O)c(F)c1F,LGALS3,"binding, ITC",,0.261 µM
C1=[N+]2CCC[N+]3=Cc4ccc5[n]4[Au-]23[n]2c1ccc2-c1nc2ccccc2nc1-5.F[P-](F)(F)(F)(F)F,20-bp DNA duplex,SPR,"pH 7.4, 37 °C",2.8 µM
COc1cccc(C(=O)N[C@H]2[C@@H](O)[C@@H](CO)O[C@@H](S[C@@H]3O[C@H](CO)[C@H](O)[C@H](NC(=O)c4cccc(OC)c4)[C@H]3OS(=O)(=O)O)[C@@H]2O)c1,LGALS3,"cell-free assay, FP",,0.057 µM
COC(=O)c1ccc(CNC(=O)[C@@H]2C[C@@H](O)CN2C(C)=O)cc1,"von Hippel-Lindau disease tumor suppressor, with Elongin B/C (VHL, Homo sapiens, UniProt P40337)",isothermal titration calorimetry,25 °C,270 ± 4 µM
CC(=O)N/C(N)=N/C(=N\S(=O)(=O)c1ccc(C(F)(F)F)cc1)N1C[C@H](c2ccccc2)C(c2ccc(Cl)cc2)=N1,"Cannabinoid receptor 1 (CNR1, Homo sapiens, UniProt P21554)","cell-free assay, radioligand",cell membranes,0.0003 µM
N#Cc1c(O)c2c(-c3ccc(-c4ccccc4O)cc3)csc2[nH]c1=O,"PRKAB2/PRKAA1, gamma1; phosphorylated (Homo sapiens, UniProt O43741+Q13131)",biolayer interferometry,AMPK complex α1β2γ1,14.5 µM

# A few entries again:
SMILES,target,assay,setting,Kd
CC(=O)N/C(N)=N/C(=N\S(=O)(=O)c1ccc(C(F)(F)F)cc1)N1C[C@H](c2ccccc2)C(c2ccc(Cl)cc2)=N1,"Cannabinoid receptor 1 (CNR1, Homo sapiens, UniProt P21554)","cell-free assay, radioligand",cell membranes,0.0003 µM
CN(C)CCNC(=O)c1cccc2c(NCCCCc3c(N)nc(N)nc3N)c3ccccc3nc12,tRNA,"binding, ITC",25 °C,2400 ± 2100 µM
CC(=O)OC1CCC(OC(C)=O)O1 (racemic),PPIA,"binding, SPR",pH 4.5,> 10 µM
CCc1cc2c3c(c1CC)O[C@H](CO)[C@H](O)[C@@H]3OC2,LGALS4 C-terminal domain,"binding, competitive fluorescence polarization",20 °C,3700 ± 650 µM
